Measurements of several laboratories.
Each line is one published result; not all experiments were run side by side. Numbers after ± are the reported error.
Cell line: MCF7

| SMILES | assay | test system | setting | IC50 |
| --- | --- | --- | --- | --- |
| O=C1C=C(c2coc3cc(O)cc(O)c3c2=O)C(=O)C([N+](=O)[O-])=C1O | cell growth or viability, MTT | – | 72 h | 45.9 µM |
| C=CC(OC(C)=O)c1cc(OC)c(OC(C)=O)c(OC)c1 (stereo not drawn) | MTT | – | 24 h | > 50 µM |
| NS(=O)(=O)c1ccc(/N=N/c2ccc(O)c(/C=N/c3nccs3)c2)cc1 | cell growth or viability, MTT | – | 48 h | 9.22 µM |
| CCC1=C(CC)C2=[N+]3C1=Cc1c(CC)c(CC)c4[n]1[Ir-3]31([C]#[N+]c3ccc(OC)cc3)([C]#[N+]c3ccc(OC)cc3)[n]3c(c(CC)c(CC)c3=CC3=[N+]1C(=C4)C(CC)=C3CC)=C2.F[B-](F)(F)F | cell growth or viability, MTT | – | 72 h | > 100 µM |
| CC/C(=C(\c1ccccc1)c1ccc(OCCN(C)CCCCCC(=O)NCCc2c[nH]c3ccc(OC)cc23)cc1)c1ccccc1 | cell survival, MTT | – | day 9, dosed days 2, 4, 7 | 4.6 µM |
| CCCCCCCCCCCCCCCOC(=O)/C=C/c1ccc(O)c(OC)c1 | cell viability, MTT | – | 48 h, serum-free medium | 1.9 ± 0.2 µg/mL |
| CCCC(CCC)C(=O)[O][Pt]([Cl])([Cl])[O]C(=O)C(CCC)CCC.N.N | cytotoxicity | – | 72 h | 0.91 ± 0.3 µM |
| [Cl][Pd-2]([Cl])([N+](=Cc1ccc[nH]1)Cc1ccco1)[N+](=Cc1ccc[nH]1)Cc1ccco1 | cell growth or viability, MTT | – | 24 h | > 100 µg/mL |
| O=[N+]([O-])[O-].[NH3+][Pt-2]1([NH3+])[O]C(C(F)(F)F)=CC(c2ccccc2)=[O+]1 (stereo not drawn) | cell growth or viability, MTT | – | – | 4.3 µM |
| C/C(=N\N=C(SCc1ccccc1)SCc1ccccc1)c1ccc(S(=O)(=O)N2CCC(C)CC2)cc1 | cell growth, MTT | – | – | > 30 µM |
| CSc1nc(Nc2ccc(C(=O)N/N=C/c3ccc(Cl)cc3)cc2)c(C#N)c(-c2ccccc2)n1 | cell growth or viability, MTT | – | 48 h | 15.3 µM |
| CC(C)(C)c1cc2c(O)c(c1)Cc1cc(C(C)(C)C)cc(c1OCC(=O)NCc1ccccn1)Cc1cc(C(C)(C)C)cc(c1O)Cc1cc(C(C)(C)C)cc(c1OCC(=O)NCc1ccccn1)COC2 | cell growth or viability, MTT | – | 72 h | 5.4 µM |
| CCCCCC(C)n1c(-c2cccnc2)nc(-c2ccc(C)cc2)c1-c1ccc(C)cc1 (stereo not drawn) | cell growth or viability, SRB | – | 24 h | 48.1 µM |
| C[C@]12CC/C(=N\OCCN3CCCCC3)C=C1CCC1C2CC[C@]2(C)/C(=C/c3ccccn3)CCC12 (stereo partly drawn) | cell growth or viability, MTT | – | 72 h | > 100 µM |
| CC1=C2[O][Ru-]([Cl])[O+]=C2C=CN1CCCCCCN1C=CC2=[O+][Ru-]([Cl])[O]C2=C1C.Cc1ccc(C(C)C)cc1.Cc1ccc(C(C)C)cc1 | cell growth or viability, crystal violet | – | 96 h | 15.2 µM |
| CC1(C)[C@@H](O)CC[C@]2(C)[C@H]3C(=O)C=C4[C@@H]5C[C@@](C)(C(=O)O)CC[C@]5(C)CC[C@@]4(C)[C@]3(C)CC[C@@H]12 | cell growth or viability, MTT | – | – | > 40 µM |
| O=C(NCCCCCCNc1n[n+]([O-])c2ccccc2[n+]1[O-])C(F)(F)F | cytotoxicity, MTT | 10% FBS medium | 6 h + 18 h, hypoxia 3% O2 | 46.7 ± 1 µM |
| CSc1nc(Nc2cccc(/C(C)=N/NC(=O)c3ccc(N)cc3)c2)c(C#N)c(-c2ccccc2)n1 | cell growth or viability, MTT | – | 48 h | 21.7 µM |
| O=C(c1ccc2ccccc2c1)c1cn(-c2ccccc2)nc1C1=Nn2c(Cc3nnc4n3N=C(c3nn(-c5ccccc5)cc3C(=O)c3ccc5ccccc5c3)CS4)nnc2SC1 | cell growth or viability, MTT | – | 48 h | 0.39 µM |
| CC(=O)[O-].O.O.O.O.[Co+2].[O-]c1ccc(Br)cc1C=NCCN1CCOCC1 | cell viability, MTT | – | 72 h | 23.8 µg/mL |
| COc1ccc2cc3[n+](cc2c1OCc1cn(Cc2ccccc2Cl)nn1)CCc1cc2c(cc1-3)OCO2 | cell growth or viability, MTT | – | – | 79.7 µM |
| C=C(C)[C@H]1CC[C@@]2(C)CC[C@]3(C)C[C@H]4[C@@H](C)[C@H](O)C[C@H]4/C(C)=C\C[C@H]3[C@H]12 | cell growth or viability, MTT | – | 72 h | 8 µM |
| COc1ccc2cc3[n+](cc2c1OCc1cn(Cc2ccc(OC(F)(F)F)cc2)nn1)CCc1cc2c(cc1-3)OCO2 | cell growth or viability, MTT | – | – | 36.7 µM |
| O=C(O[C@@H]1Cc2c(O)cc(O)cc2O[C@@H]1c1cc(O)c(O)c(O)c1)c1cc(O)c(O)c(O)c1 | cell growth or viability, CCK-8 | – | 24 h | 72.8 µM |
| Cc1cc(/C=C/c2ccc(O)c(O)c2)[nH]n1 | cell growth or viability, MTT | – | 48 h | > 100 µM |
| COc1ccc(CNC[C@@](O)(COCc2ccc(F)cc2)[C@@H]2CC[C@@H](C)C[C@H]2OCc2ccc(F)cc2)cc1 | cell growth or viability, MTT | – | 72 h | 0.9 µM |
| CC1(C)c2ccccc2-c2ccc(-c3cn(-c4ccc(-c5cc(-c6ccccn6)nc(-c6ccccn6)c5)cc4)nn3)cc21 | cell growth or viability, MTS | – | 72 h | 1.07 µM |

| SMILES | assay | test system | setting | IC50 |
| --- | --- | --- | --- | --- |
| C/C(=N\N=c1/[nH]c(-c2ccccc2)cs1)c1c(O)c2ccccc2oc1=O | cell growth or viability, MTT | – | 48 h | 34.8 µM |
| CCC(=C(c1ccc(O)cc1)c1ccc(OCCN(C)CCOCCOCCOCCOCCOCCOCCOCCOCCOCCOCCOCCN(C)CCOc2ccc(C(=C(CC)c3ccccc3)c3ccc(O)cc3)cc2)cc1)c1ccccc1 (mixture of isomers) | cell growth | – | 96 h, Z-Z:Z-E:E-E isomer mix 1:2:1 | 0.15 µM |
| COc1cccc2c1C(=O)c1c(O)c3c(c(O)c1C2=O)CC(O)(C(=O)CO)CC3OC1CC(NC(=O)CCC2=C(C)C(=O)C=C(C(C)C)C2=O)C(O)C(C)O1 (stereo not drawn) | cell growth or viability, MTT | – | 72 h | ~2 µM |
| [Cl][Au+][Cl].[O-][Cl+3]([O-])([O-])[O-].c1ccc(P(=NCc2ccccn2)(c2ccccc2)c2ccccc2)cc1 | cell growth or viability, MTT | – | 74 h | 30 µM |
| CC(=NNC(=S)NN=C(C(=NO)c1ccccc1)c1ccccc1)c1ccccc1 | cell growth or viability, MTT | – | 48 h | 32.8 µM |
| C[C@@H]1C(=O)CC[C@@H]2[C@]1(C)CC[C@H]1[C@@]2(C)CC[C@@]2(C)[C@@H]3CC(C)(C)CC[C@]3(C)CC[C@]12C | cell growth or viability, SRB | – | – | > 100 µM |
| CC(=O)N[C@@H]1[C@@H](OC(C)=O)[C@H](OC(C)=O)[C@@H](COC(C)=O)O[C@H]1n1nc(-c2cc3ccccc3[nH]2)n(-c2ccccc2)c1=S | cell growth or viability, MTT | – | – | 8.3 µM |
| Cc1c(C)n(-c2c(C(C)C)cccc2C(C)C)c(=[Se])n1-c1c(C(C)C)cccc1C(C)C.[Cl][Ag] | cell growth or viability, MTT | – | 72 h | 1.6 µM |
| CCN1CCC2(CC1)C/C(=N\NC(=O)Nc1ccc(OC)cc1)c1ccccc1O2 | cell growth or viability, MTT | – | 48 h | 39 µM |
| CC=C(C)C(=O)OC1C(O)C2(COC(C)=O)C(O)CC3(C)C(=CCC4C5(C)CCC(OC6OC(C(=O)OC)C(OC7OC(CO)C(O)C(O)C7O)C(O)C6OC6OC(CO)C(O)C(O)C6O)C(C)(CO)C5CCC43C)C2CC1(C)C (stereo not drawn) | cell growth or viability, CCK-8 | – | 48 h | 53.9 µM |
| CN(C)C(=S)N(C)N=Cc1ccccc1SSc1ccccc1C=NN(C)C(=S)N(C)C | cell growth or viability, MTT | – | 72 h | 0.12 µM |
| C=CC(=C)CC[C@]1(C)[C@H](C)CC[C@@]23C(=C[C@H](OC(=O)CCCCC)C[C@@H]12)[C@@H](OC(C)=O)O[C@H]3OC(C)=O | cell growth or viability, SRB | – | – | 0.69 µM |
| CS/C(=N\N=C(/C)c1ccc(S(=O)(=O)N2CCC(C)CC2)cc1)N1CCCCC1 | cell growth or viability, MTT | – | – | 46.3 µM |
| [NH2][Pt]1([NH2])([Cl])([O]C(=O)C(F)(F)F)[O]C(=O)C2(CC(=O)C2)C(=O)[O]1 | cell growth or viability, MTT | – | – | 22.6 µM |
| COC(=O)c1ccc(-n2nc(C(F)(F)F)cc2-c2cc(OC)c(OC)c(OC)c2)cc1 | cell growth or viability, SRB | – | – | 1.3 µM |
| N=C(N)NCCC[C@@H]1NC(=O)[C@H](CCCCN)NC(=O)[C@@H](Cc2ccc(O)cc2)NC(=O)[C@H](CC(=O)O)NC(=O)CNC1=O | cytotoxicity, MTT | – | 48 h | > 100 µM |
| Cc1ccc(/C=N/NC(=O)c2cc3cc(Nc4nccc(-c5cccnc5)n4)ccc3[nH]2)cc1 | cell growth or viability, MTT | – | 48 h | 2.7 µM |
| CC(=O)N[C@H](CC(=O)O)C(=O)N[C@H](Cc1ccccc1)C(=O)N[C@@H](CC(=O)N[C@H](CCCNC(=N)N)C(N)=O)c1ccc2ccccc2c1 | cell growth or viability, ATP luminescence | – | 72 h | > 100 µM |
| O=C(CCc1nc2cc(Cl)ccc2[nH]c1=O)Nc1ccc([N+](=O)[O-])cc1 | cell growth or viability, MTT | – | – | 11.9 µM |
| CC(=O)OC1CC2C(C)(C)C(O)CCC2(C)C2CCC34CC3(CCC4C(C)CC3OC(C)(C)OC(C)(C)C3O)C12C (stereo not drawn) | cell growth or viability, MTT | – | – | 7.6 µM |
| COc1c(O)cc2oc3c(Br)c(O)c(CC=C(C)C)c(O)c3c(=O)c2c1CC=C(C)C | cell growth or viability | – | 48 h | 22.2 µM |
| Nn1c(SCC(=O)N2CCC(=C3c4ncccc4CCc4cc(Cl)cc(Br)c43)CC2)nnc1-c1ccccc1 | cell growth or viability, SRB | – | – | 27 µM |
| CCCCCCCCC=CCCCCCCCCn1c(-c2cccnc2)nc(-c2ccc(C)cc2)c1-c1ccc(C)cc1 | cell growth or viability, SRB | – | 24 h | > 100 µM |
| C=CC12COC(=O)C(=C)C1C1OC(=O)C(C)C1C(OC(=O)C(=C)CO)C2 (stereo not drawn) | cell growth or viability, MTT | – | 72 h | 4.9 µM |
| C[C@@H]1CC[C@@H]([C@@](O)(COCc2ccccc2)Cn2cnc3ccccc32)[C@H](OCc2ccccc2)C1 | cell growth or viability, MTT | – | 72 h | 7.5 µM |
| CC(=O)N[C@@H](Cc1c[nH]c2ccccc12)C(=O)[O][Re-2]1(=[C]=O)(=[C]=O)(=[C]=O)[n+]2c(C)cc(-c3ccccc3)c3ccc4c(-c5ccccc5)cc(C)[n+]1c4c32 | cell growth or viability, resazurin | – | 72 h | 2.98 µM |
| CCCCn1cc(C(=O)O)c(=O)c2cc(F)c(Nc3ccc(OC)cc3)c([N+](=O)[O-])c21 | cell growth or viability, SRB | – | 72 h | 8.1 µg/mL |

Repeated from above:
| SMILES | assay | test system | setting | IC50 |
| --- | --- | --- | --- | --- |
| Cc1cc(/C=C/c2ccc(O)c(O)c2)[nH]n1 | cell growth or viability, MTT | – | 48 h | > 100 µM |
| COc1ccc(CNC[C@@](O)(COCc2ccc(F)cc2)[C@@H]2CC[C@@H](C)C[C@H]2OCc2ccc(F)cc2)cc1 | cell growth or viability, MTT | – | 72 h | 0.9 µM |
| CC1(C)c2ccccc2-c2ccc(-c3cn(-c4ccc(-c5cc(-c6ccccn6)nc(-c6ccccn6)c5)cc4)nn3)cc21 | cell growth or viability, MTS | – | 72 h | 1.07 µM |
| C/C(=N\N=c1/[nH]c(-c2ccccc2)cs1)c1c(O)c2ccccc2oc1=O | cell growth or viability, MTT | – | 48 h | 34.8 µM |
| CCC(=C(c1ccc(O)cc1)c1ccc(OCCN(C)CCOCCOCCOCCOCCOCCOCCOCCOCCOCCOCCOCCN(C)CCOc2ccc(C(=C(CC)c3ccccc3)c3ccc(O)cc3)cc2)cc1)c1ccccc1 (mixture of isomers) | cell growth | – | 96 h, Z-Z:Z-E:E-E isomer mix 1:2:1 | 0.15 µM |
| COc1cccc2c1C(=O)c1c(O)c3c(c(O)c1C2=O)CC(O)(C(=O)CO)CC3OC1CC(NC(=O)CCC2=C(C)C(=O)C=C(C(C)C)C2=O)C(O)C(C)O1 (stereo not drawn) | cell growth or viability, MTT | – | 72 h | ~2 µM |
| [Cl][Au+][Cl].[O-][Cl+3]([O-])([O-])[O-].c1ccc(P(=NCc2ccccn2)(c2ccccc2)c2ccccc2)cc1 | cell growth or viability, MTT | – | 74 h | 30 µM |
